# Experimental data of several laboratories.
# Numbered parts are unrelated; each lists some results of a single study. pIC50: −log10 of the molar value.
# Sequence of UniProt Q13761 (53-186, looked up): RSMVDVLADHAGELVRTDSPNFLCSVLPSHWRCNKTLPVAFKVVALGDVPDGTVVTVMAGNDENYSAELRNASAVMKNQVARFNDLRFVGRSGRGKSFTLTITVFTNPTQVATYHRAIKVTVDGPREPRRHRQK

# Set 1 — technique: protein-binding microarray; form: double-stranded DNA, one strand shown; matrix: in vitro; concentration: not given; direction: higher = stronger binding
# Target: TATA-box-binding protein 1 (TBP1, Arabidopsis thaliana, UniProt P28147, residues 1-200, full length assumed)
# Notes: k-mer, scored over probes, only values ≥0.25
# Residues (chain): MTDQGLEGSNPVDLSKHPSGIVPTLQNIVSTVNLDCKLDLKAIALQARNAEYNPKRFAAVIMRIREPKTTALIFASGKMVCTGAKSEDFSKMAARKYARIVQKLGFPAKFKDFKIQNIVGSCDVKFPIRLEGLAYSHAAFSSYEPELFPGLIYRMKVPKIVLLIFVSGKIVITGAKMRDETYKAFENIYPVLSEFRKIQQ
Oligonucleotide,E-score
ATAATGG,0.294
TATTTGA,0.274
CATTTAA,0.397
TAATCTA,0.273
AAAGATA,0.267
ATATTGG,0.335
ATAAATC,0.367

# Set 2 — technique: Spec-seq; form: double-stranded DNA, one strand shown; matrix: in vitro; concentration: not given; notes: whole probe, mean of replicates; relative to: not given; direction: lower = stronger binding
# Target: Transcription factor SOX-2, HMG box (Sox2, Mus musculus, UniProt P48432, residues 41-119)
# Sequence of UniProt P48432 (41-119, looked up): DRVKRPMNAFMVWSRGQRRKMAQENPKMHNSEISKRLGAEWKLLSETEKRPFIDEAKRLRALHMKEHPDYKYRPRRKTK
# Constant ends, left off below: GAGTCGTCTCGTCAGCACCA … CCGTAGAGCACTCAGGTC
Oligonucleotide,relative binding energy
TTCTA,-0.975 ln ratio
GGGTT,1.33 ln ratio
TCCCT,0.973 ln ratio
TAACA,-0.414 ln ratio
TGAAC,0.112 ln ratio

# Set 3 — technique: protein-binding microarray; form: double-stranded DNA, one strand shown; matrix: in vitro; concentration: 250 nM; notes: 60-bp whole probe; with: salmon DNA 0.4 mg/ml; relative to: random background probes; direction: higher = stronger binding; constant ends, left off below: GCCTAGCAC … GTCTTGATTCGCTTGACGCTGCTG
# Target: Interferon regulatory factor 7, full length, phosphomimetic (IRF7, Homo sapiens, UniProt Q92985, residues 1-503, S101K/S471D/S472D/S475D/S476D/S477D/S483D/S484D/S487D)
# Sequence of UniProt Q92985 (whole entry, unmodified, looked up): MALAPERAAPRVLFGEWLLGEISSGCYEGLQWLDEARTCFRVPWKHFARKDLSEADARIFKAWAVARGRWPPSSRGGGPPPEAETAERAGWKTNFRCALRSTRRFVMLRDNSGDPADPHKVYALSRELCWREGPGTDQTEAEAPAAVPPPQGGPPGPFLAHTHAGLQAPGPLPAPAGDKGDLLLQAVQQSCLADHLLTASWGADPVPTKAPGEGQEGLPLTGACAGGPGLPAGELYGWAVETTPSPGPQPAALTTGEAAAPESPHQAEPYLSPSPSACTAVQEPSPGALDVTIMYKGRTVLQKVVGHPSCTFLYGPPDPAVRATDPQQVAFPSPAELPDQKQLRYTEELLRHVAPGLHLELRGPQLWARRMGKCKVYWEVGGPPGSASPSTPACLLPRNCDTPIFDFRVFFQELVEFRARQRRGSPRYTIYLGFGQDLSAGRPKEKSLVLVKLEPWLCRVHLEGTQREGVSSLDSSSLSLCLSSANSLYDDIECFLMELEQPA
Oligonucleotide,log fluorescence [z-score]
TCATAGCTTCCTTTCGCACTGTGCTAG,0.309
TAATGCTTCTGTATTCATGAGTGCTAG,-0.424
GGAGTTTTCAGTCCTGGGATGTGCTAG,-0.131
TTAGATTTCGGTTCCGGTTAGTGCTAG,4.83
GACGAACTGTGGACTGGAGACGTGCTA,-0.607
CATCTCGGGCCGCCGGGCCGGTGCTAG,-0.239
GACGGTTTCGACTTTCGGGAGGTGCTA,10.8
TTAAATATCAGACTGGATTAGTGCTAG,-0.0972

# Set 4 — action: inhibitor; concentration: 20 µM
# Target: Replicase polyprotein 1ab, nsp13 helicase (rep, Severe acute respiratory syndrome coronavirus 2, UniProt P0DTD1)
Structure (SMILES),inhibition
COC(=O)C[C@](O)(CCC(C)(C)O)C(=O)O[C@@H]1C(OC)=C[C@]23CCCN2CCc2cc4c(cc2[C@H]13)OCO4,-2.26%
Cc1ccc2c(Cl)cc(Cl)c(O)c2n1,2.22%
O=c1cc(-c2ccccc2)oc2cc(O)c(O)c(O)c12,70%
Clc1ccc(CCCOCCCN2CCCCC2)cc1,10.3%
Nc1nc(NC[C@H]2CC[C@H](CNS(=O)(=O)c3cccc4ccccc34)CC2)nc2ccccc12,15.4%
NC(=O)[C@@H]1CC[C@@H]2CN1C(=O)N2OS(=O)(=O)O,7.74%
N[C@H](C(=O)O)c1ccc(C(=O)O)c(O)c1,4.36%
Cc1sc(N)c(C(=O)c2cccc(C(F)(F)F)c2)c1C,0.74%
Cc1ncc(OC[C@@]2(c3cccc(F)c3)C[C@H]2C(=O)Nc2ccc(F)cn2)c(C)n1,9.14%
CCCn1c(=O)[nH]c(=O)c2[nH]cnc21,10.6%
CCCCCn1cc(C(=O)NC23CC4CC(CC(C4)C2)C3)c(=O)c2cc(-c3ccccc3)ccc21,2.41%
O=C(O)CSCC(=O)NC1CCSC1=O (stereo not drawn),5.13%
CCc1cc(/C(C)=N/OCc2ccc(C3CCCCC3)c(C(F)(F)F)c2)ccc1CN1CC(C(=O)O)C1,3.67%
COc1ccc(C2(O)OC(=O)C(c3ccc4c(c3)OCO4)=C2Cc2cc(OC)c(OC)c(OC)c2)cc1 (stereo not drawn),10.2%
Cc1nc[nH]c1CCN,6.87%
O=C(Nc1cc(-c2ccccc2)nn1-c1ccccc1)c1ccc([N+](=O)[O-])cc1,0.87%
COc1cc2c(NC3CCN(CC4CCCCC4)CC3)nc(N3CCCN(C(C)C)CC3)nc2cc1OCCCN1CCCCC1,19.1%
CCCCCCCC/C=C/C(=O)O,2.96%
CC(=O)c1ccc(NS(C)(=O)=O)c(Oc2ccc(F)cc2F)c1,2.39%
CCOc1cc(C(=O)Nc2ccc(Cl)c(-c3nc4ccccc4[nH]3)c2)cc(OCC)c1OCC,6.72%
Cc1ccc(-c2ncccn2)c(C(=O)N2C[C@H](COc3ccc(F)cn3)CC[C@H]2C)c1,3.06%
CC[C@@H](Cc1c(I)cc(I)c(N)c1I)C(=O)O,1.83%
COC(=O)/C=C/C(=O)N[C@@H]1CC[C@@]2(O)[C@H]3Cc4ccc(O)c5c4[C@@]2(CCN3CC2CC2)[C@H]1O5,4.76%
CCOC(=O)C1=C(C)NC2=C(C(=O)CC(C)(C)C2)C1c1ccc(-c2ccccc2)cc1 (stereo not drawn),-0.92%
O=C(CN1CCNCC1)NC1CCCCC1,6.22%

# Set 5 — effect on: enzyme activity; action: inhibitor
# Target: Replicase polyprotein 1ab, main protease (rep, Severe acute respiratory syndrome coronavirus 2, UniProt P0DTD1)
Structure (SMILES),pIC50
Sc1nnc(-c2ccccc2Cl)o1,< 4.70
Cc1ccc(S(=O)(=O)c2ccc([N+](=O)[O-])o2)cc1,4.84
COC(=O)/C=C/c1cc(O)ccc1O,4.89
O=C(O)C(=O)CBr,4.94

# Set 6 — cell line: HEK-293T/ACE2; concentration: concentration not given; time: 16 (unit not given); relative to: vehicle
SMILES,viability [%]
CC(C)CC(N(C)C)C1(c2ccc(Cl)cc2)CCC1 (stereo not drawn),99.7
NC(=O)c1cn(Cc2c(F)cccc2F)nn1,105
Cc1ccc(N(CC2=NCCN2)c2cccc(O)c2)cc1,102
CN(N=O)C(=O)N[C@@H](C=O)[C@@H](O)[C@H](O)[C@H](O)CO,100

# Other studies, line by line
Oligonucleotide,target,test,system,conditions,scale,quantity,result
GAGGCCTCGCGCGGTTGGCCTCCTGGCCAACCGCGCGAGGCCTCACACTC,"Runt-related transcription factor 3, Runt domain (RUNX3, Homo sapiens, UniProt Q13761, residues 53-186)",protein-binding microarray,"hairpin DNA, in vitro","not given, whole hairpin DNA, median over replicate spots","relative to: not given, higher = stronger binding",median fluorescence,5960 a.u.
